Results collected from several papers.
Each numbered part is a random draw from the data of one study; scales do not carry over between parts.

Series 1 — method: aptamer microarray, sandwich; molecule type: DNA with 2'F-ANA; medium: in vitro; concentration: 200 nM; with: Cy3 exosite-II aptamer, 400 nM; direction: higher = stronger binding
Target: Prothrombin, mature alpha-thrombin (F2, Homo sapiens, UniProt P00734)
Setting: whole 15-mer aptamer, many near background
| Sequence | mean fluorescence intensity |
| --- | --- |
| GGTTGGTGTGGTTGG (2'F-ANA at 1 4 5 8 10 14 15) | 46.4 a.u. |
| GGTTGGTGTGGTTGG (2'F-ANA at 2 4 10 12 13 14) | 71.6 a.u. |
| GGTTGGTGTGGTTGG (2'F-ANA at 3 11 12 13 15) | 1210 a.u. |
| GGTTGGTGTGGTTGG (2'F-ANA at 1 2 5 8 12 14 15) | 49.4 a.u. |

Series 2 — method: universal PBM; molecule type: double-stranded DNA, one strand shown; medium: in vitro; concentration: 600 nM; direction: higher = stronger binding
Target: Sal-like protein 4, full length isoform A (SALL4, Homo sapiens, UniProt Q9UJQ4, residues 1-1053)
UniProt Q9UJQ4, sequence (whole entry, looked up): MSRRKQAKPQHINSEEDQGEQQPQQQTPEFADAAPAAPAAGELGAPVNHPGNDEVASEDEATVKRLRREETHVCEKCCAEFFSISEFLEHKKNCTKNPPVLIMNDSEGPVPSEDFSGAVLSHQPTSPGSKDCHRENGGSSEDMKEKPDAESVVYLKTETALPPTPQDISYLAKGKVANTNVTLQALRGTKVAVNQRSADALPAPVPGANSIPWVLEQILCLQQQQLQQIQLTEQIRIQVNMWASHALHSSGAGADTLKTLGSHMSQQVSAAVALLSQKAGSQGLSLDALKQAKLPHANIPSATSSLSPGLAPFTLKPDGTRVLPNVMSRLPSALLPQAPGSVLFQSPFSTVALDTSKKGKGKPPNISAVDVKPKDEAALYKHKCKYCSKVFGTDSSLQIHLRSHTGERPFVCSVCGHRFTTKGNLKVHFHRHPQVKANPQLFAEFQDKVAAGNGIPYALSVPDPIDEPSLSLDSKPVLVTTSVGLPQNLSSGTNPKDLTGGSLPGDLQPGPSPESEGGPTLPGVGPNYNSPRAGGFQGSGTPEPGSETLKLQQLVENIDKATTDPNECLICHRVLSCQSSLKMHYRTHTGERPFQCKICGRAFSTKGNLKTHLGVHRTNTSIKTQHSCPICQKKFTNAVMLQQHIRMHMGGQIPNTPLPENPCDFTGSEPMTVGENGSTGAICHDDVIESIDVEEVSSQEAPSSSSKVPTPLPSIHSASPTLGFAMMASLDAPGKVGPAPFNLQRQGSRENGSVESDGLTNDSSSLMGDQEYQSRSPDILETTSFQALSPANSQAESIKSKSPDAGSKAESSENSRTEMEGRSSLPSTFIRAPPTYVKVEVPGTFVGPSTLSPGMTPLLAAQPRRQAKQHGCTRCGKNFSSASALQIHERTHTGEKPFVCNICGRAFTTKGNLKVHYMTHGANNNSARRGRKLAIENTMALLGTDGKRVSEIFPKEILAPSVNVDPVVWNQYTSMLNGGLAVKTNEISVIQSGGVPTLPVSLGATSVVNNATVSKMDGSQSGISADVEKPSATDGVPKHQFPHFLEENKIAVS
Setting: 8-mer, flanks averaged, mean of replicates
| Sequence | E-score |
| --- | --- |
| ATCGTGCA | 0.0169 |
| CAAACTTG | 0.0324 |
| AAAAGTAC | 0.191 |
| CGTTCCAC | -0.0674 |

Series 3 — method: protein-binding microarray; molecule type: double-stranded DNA, one strand shown; medium: in vitro; concentration: not given; direction: higher = stronger binding
Target: Max dimerization protein 1, bHLH-zipper, MAX partner unstated (MXD1, Homo sapiens, UniProt Q05195, residues 56-136)
Setting: k-mer, scored over probes, only values ≥0.25
Target sequence (chain): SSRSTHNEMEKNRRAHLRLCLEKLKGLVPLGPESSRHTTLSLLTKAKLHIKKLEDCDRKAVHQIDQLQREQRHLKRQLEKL
| Sequence | E-score |
| --- | --- |
| GCAGTACC | 0.265 |
| CCACGCCA | 0.257 |
| CATGATTC | 0.254 |
| CATGCACG | 0.427 |
| CGTGGAAA | 0.308 |
| GGGTGGGA | 0.307 |

Further values, each from its own experiment
| Substance | target | test | system | setting | how to read | measurement | result |
| --- | --- | --- | --- | --- | --- | --- | --- |
| PhoQ, residues 284 288 289 292 302 303 GNNTDL | PhoP, residues 12 14 15 18 19 TPLRH (Escherichia coli, UniProt P23836) | Sort-seq, measured: YFP reporter | E. coli | PhoQ-PhoP variant library, with: 10 µM Mg2+ | relative to: high Mg2+ state, higher = stronger signaling | fold induction | 7.53 |

For quick reference, copied from above (series 1):
| Sequence | mean fluorescence intensity |
| --- | --- |
| GGTTGGTGTGGTTGG (2'F-ANA at 3 11 12 13 15) | 1210 a.u. |
